Measured values gathered from unrelated publications.
Every numbered part comes from another study and shows a few of its results, in no order. Positions count from the first letter of the parent shown.

Series 1
Target: Sal-like protein 4, full length isoform A (SALL4, Homo sapiens, UniProt Q9UJQ4, residues 1-1053)
Sequence of UniProt Q9UJQ4 (whole entry, looked up): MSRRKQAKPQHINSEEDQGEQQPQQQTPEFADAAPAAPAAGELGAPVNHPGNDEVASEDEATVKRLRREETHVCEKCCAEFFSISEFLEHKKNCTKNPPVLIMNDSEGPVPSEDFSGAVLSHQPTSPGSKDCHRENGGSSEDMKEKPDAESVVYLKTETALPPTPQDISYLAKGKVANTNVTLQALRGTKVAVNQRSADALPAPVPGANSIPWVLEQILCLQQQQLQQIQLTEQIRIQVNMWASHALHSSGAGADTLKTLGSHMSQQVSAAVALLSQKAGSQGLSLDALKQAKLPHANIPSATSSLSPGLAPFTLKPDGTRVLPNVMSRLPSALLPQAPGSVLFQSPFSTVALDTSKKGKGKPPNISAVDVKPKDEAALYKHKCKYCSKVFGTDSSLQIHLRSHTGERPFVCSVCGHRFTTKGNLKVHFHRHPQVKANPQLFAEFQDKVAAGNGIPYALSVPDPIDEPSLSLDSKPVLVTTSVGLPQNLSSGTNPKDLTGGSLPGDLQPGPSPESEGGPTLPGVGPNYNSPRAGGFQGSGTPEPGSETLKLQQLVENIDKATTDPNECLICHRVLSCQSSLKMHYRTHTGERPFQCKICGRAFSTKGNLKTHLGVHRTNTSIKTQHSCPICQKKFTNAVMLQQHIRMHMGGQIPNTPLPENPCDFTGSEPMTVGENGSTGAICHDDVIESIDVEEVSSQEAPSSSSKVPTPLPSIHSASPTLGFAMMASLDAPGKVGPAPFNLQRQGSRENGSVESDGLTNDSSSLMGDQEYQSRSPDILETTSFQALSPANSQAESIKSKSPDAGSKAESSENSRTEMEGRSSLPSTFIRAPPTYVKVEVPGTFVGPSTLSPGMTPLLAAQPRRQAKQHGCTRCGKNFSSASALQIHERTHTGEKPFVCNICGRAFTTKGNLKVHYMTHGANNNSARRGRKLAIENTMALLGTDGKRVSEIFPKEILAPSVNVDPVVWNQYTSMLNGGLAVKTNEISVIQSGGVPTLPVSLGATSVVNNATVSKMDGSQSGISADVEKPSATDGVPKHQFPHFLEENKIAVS
Technique: universal PBM
Form: double-stranded DNA, one strand shown
Matrix: in vitro
Concentration: 600 nM
Notes: 8-mer, flanks averaged, mean of replicates
Direction: higher = stronger binding
With `ATTCACCG` the E-score was -0.0244.
With `ATTCAACC` the E-score was -0.0224.
With `AATACCAG` the E-score was 0.0836.
`CAGCTTTC` has an E-score of -0.202.
The E-score of `CACGAGCC` is reported as -0.242.

Series 2
Target: CCNA1, cyclin fold, Cln2 fusion (human)
Technique: yeast growth competition, sequencing
Matrix: yeast
Notes: weak parent motif
Baseline: not given
Direction: higher = stronger binding
Starting sequence: ORC1 docking peptide (human); PRARKRLELGNLG; partner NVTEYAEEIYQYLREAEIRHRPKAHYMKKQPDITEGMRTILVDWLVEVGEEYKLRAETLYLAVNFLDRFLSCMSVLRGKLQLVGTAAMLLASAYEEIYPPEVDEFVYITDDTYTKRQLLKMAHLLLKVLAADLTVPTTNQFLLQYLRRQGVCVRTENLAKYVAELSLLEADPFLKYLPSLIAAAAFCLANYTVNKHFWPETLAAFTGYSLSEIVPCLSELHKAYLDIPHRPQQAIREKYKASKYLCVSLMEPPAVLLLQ
For `PRARKRLSLGNLG [E8S]`, “normalised enrichment score” read 0.503.
For `PRARKRLELGELG [N11E]`, “normalised enrichment score” read 0.263.
For `KRARKRLELGNLG [P1K]`, “normalised enrichment score” read 0.708.
Under “normalised enrichment score”, `PRARKRLELGNKG [L12K]` is recorded as 0.471.

Series 3
Target: Interferon regulatory factor 3, full length, phosphomimetic (IRF3, Homo sapiens, UniProt Q14653, residues 1-427, S386D/S396D/S398D/S402D/T404D/S405D)
Technique: protein-binding microarray
Form: double-stranded DNA, one strand shown
Matrix: in vitro
Concentration: 2540 nM top
Notes: 60-bp whole probe
Together with: salmon DNA 0.4 mg/ml
Baseline: random background probes
Direction: higher = stronger binding
All sequences stand within: GCCTAGCAC … GTCTTGATTCGCTTGACGCTGCTG
Target sequence (chain): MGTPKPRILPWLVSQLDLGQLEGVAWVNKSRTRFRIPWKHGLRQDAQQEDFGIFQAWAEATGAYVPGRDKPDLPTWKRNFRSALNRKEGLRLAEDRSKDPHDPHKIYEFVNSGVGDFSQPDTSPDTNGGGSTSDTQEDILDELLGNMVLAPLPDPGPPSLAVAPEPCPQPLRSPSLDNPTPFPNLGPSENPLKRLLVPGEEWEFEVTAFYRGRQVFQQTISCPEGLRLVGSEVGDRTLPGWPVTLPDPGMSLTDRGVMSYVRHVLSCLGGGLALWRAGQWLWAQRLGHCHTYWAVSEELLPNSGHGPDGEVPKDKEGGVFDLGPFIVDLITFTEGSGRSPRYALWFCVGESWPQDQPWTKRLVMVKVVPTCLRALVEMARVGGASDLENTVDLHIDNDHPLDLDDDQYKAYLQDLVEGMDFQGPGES
`TCATCTTCCCCTCTCATACTGTGCTAG`: “fitted relative affinity” 1.91 z-score.
`TTGGATTTCGGGTTTCGATTAGTGCTA`: “fitted relative affinity” 2.57 z-score.
`CCCGCCCCGCCCCGCCCGCAGTGCTAG`: “fitted relative affinity” -0.838 z-score.
Under “fitted relative affinity”, `GACGGTCTCCTCCTCCTGACGTGCTAG` is recorded as 0.921 z-score.
For `TAGCGTATATTCCCTAGAATAGTGCTA`, “fitted relative affinity” read -0.209 z-score.
`TTAGGACAGGGACTGGGTTAGTGCTAG`: “fitted relative affinity” -0.821 z-score.
Under “fitted relative affinity”, `GACGGTATCCTTTTCATGACGTGCTAG` is recorded as 7.18 z-score.

Other studies, line by line
For `PhoQ, residues 284 288 289 292 302 303 NLALSC`, the fold induction was 1.63 (PhoP, residues 12 14 15 18 19 LWHVM (Escherichia coli, UniProt P23836); Sort-seq, refers to: YFP reporter; E. coli; PhoQ-PhoP variant library, together with: 10 µM Mg2+; baseline: high Mg2+ state, higher = stronger signaling).

Repeated from above (series 3):
For `TAGCGTATATTCCCTAGAATAGTGCTA`, “fitted relative affinity” read -0.209 z-score.
`TTAGGACAGGGACTGGGTTAGTGCTAG`: “fitted relative affinity” -0.821 z-score.
